Measured values pooled from the literature.
A part holds a random share of what one study measured.

Study 1 — method: aptamer microarray, sandwich; molecule type: DNA with 2'F-ANA; medium: in vitro; tested at: 200 nM; together with: Cy3 exosite-II aptamer, 400 nM; direction: higher = stronger binding; endpoint: mean fluorescence intensity; sequence: GGTTGGTGTGGTTGG
Target: Prothrombin, mature alpha-thrombin (F2, Homo sapiens, UniProt P00734)
Setting: whole 15-mer aptamer, many near background
2'F-ANA at 1 2 5 6 8 9 10 14: 51.2 a.u.
2'F-ANA at 1 2 3 7 10 11 12 13 14: 55.9 a.u.
2'F-ANA at 2 3 4 5 8 9 10 11 13 14: 64.2 a.u.
2'F-ANA at 1 2 3 5 6 7 9 10 11 12 13 14 15: 51.5 a.u.
2'F-ANA at 3 5 6 7 8 10 11 13 14 15: 70.4 a.u.
2'F-ANA at 2 3 4 6 8 10 11 13 15: 162 a.u.

Study 2 — method: universal PBM; molecule type: double-stranded DNA, one strand shown; medium: in vitro; tested at: not given; direction: higher = stronger binding; endpoint: E-score
Target: Sal-like protein 4, full length isoform B (SALL4, Homo sapiens, UniProt Q9UJQ4-2, residues 1-616)
Setting: 8-mer, flanks averaged, mean of replicates
GATACCCA: -0.00746
CACCAGCG: -0.268
ATGAATGG: 0.0221
CTAGTAAA: 0.237
CGCGCGAA: -0.301

Study 3 — method: protein binding microarray; molecule type: double-stranded DNA, one strand shown; medium: in vitro; tested at: not given; baseline: not given; direction: higher = stronger binding; endpoint: E-score
Target: Histone acetyltransferase KAT6A, winged helix 2, GST fusion (KAT6A, Homo sapiens, UniProt Q92794, residues 85-181)
Setting: 8-mer, flanks averaged, mean of 2 arrays, mostly near background
Construct (chain): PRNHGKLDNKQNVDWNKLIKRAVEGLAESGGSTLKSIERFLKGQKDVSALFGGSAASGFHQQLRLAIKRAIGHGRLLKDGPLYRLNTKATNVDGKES
ATCAATTG: 0.114
AACGTGGG: -0.129
GGGTAGCA: 0.175
GTGAAGGA: -0.198
ACCTAGCC: -0.0272
GGTTCTAA: 0.00381
AACGCTCG: -0.0535

Single results of other studies
PhoQ, residues 284 288 289 292 302 303 SCKMEA  fold induction (PhoP, residues 12 14 15 18 19 AGCRL (Escherichia coli, UniProt P23836); Sort-seq, item: YFP reporter; E. coli; PhoQ-PhoP variant library, together with: 10 µM Mg2+; baseline: high Mg2+ state, higher = stronger signaling): 9.76

A few entries again (study 3):
ACCTAGCC: -0.0272
AACGCTCG: -0.0535
GTGAAGGA: -0.198
